Measured values from different studies.
Parts stem from different laboratories: compare values within a part only.

Sample 1
Target: Histone acetyltransferase KAT6A, winged helix 1, GST fusion (KAT6A, Homo sapiens, UniProt Q92794, residues 1-85)
Technique: protein binding microarray
Form: double-stranded DNA, one strand shown
Matrix: in vitro
Concentration: not given
Setting: 8-mer, flanks averaged, mean of 2 arrays, mostly near background
Baseline: not given
Direction: higher = stronger binding
Residues (chain): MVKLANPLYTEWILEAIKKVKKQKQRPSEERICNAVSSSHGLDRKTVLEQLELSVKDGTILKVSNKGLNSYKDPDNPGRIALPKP
| Sequence | E-score |
| --- | --- |
| TGATTTAA | -0.0847 |
| CCCAAAAA | -0.187 |
| AATCGATC | -0.232 |
| GAAATGCA | -0.221 |
| AAGTTGGG | -0.289 |
| AAGAGGCC | -0.0166 |
| ACGGAGAT | 0.057 |
| AATTCCAA | -0.194 |
| AACTTCCC | -0.117 |
| CAAGGTAA | 0.0288 |
| CGTCTGTA | -0.0329 |
| AGGAGTCG | -0.133 |
| CAGTGCAA | -0.196 |
| CGCTACTA | 0.208 |
| AACTAGGA | -0.179 |
| CTCGAGAA | -0.0595 |
| AACACACT | -0.0155 |
| GCAAAGGC | 0.0509 |
| CCTACTCA | -0.172 |
| CTACCCAA | -0.122 |
| AAATGCTC | -0.11 |
| CCGTACAA | 0.24 |
| AAGTACTG | -0.11 |
| ACCGTCAC | 0.0843 |
| CGAAGCGC | 0.335 |

Sample 2
Target: RNA binding protein fox-1 homolog 2, RRM domain, GST-SBP tag (RBFOX2, Homo sapiens, UniProt O43251-10, residues 100-194)
Technique: RNA Bind-n-Seq
Form: RNA
Matrix: in vitro
Concentration: 365 nM
Setting: natural RNA segment, single round, ends assumed
Baseline: no-protein control
Direction: higher = stronger binding
Residues (chain): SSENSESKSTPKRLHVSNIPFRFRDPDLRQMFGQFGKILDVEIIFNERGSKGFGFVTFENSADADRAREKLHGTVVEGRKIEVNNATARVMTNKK
| Sequence | RBNS enrichment (R) |
| --- | --- |
| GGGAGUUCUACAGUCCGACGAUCGGUCUGGCUUGAGCAUCUAUGGGCAGCCACAGCGACCAGUCUAGUCCCAGACAGCACAGGUCAAGCAGCGUGGGACUGUGGAGCCCCUGGCAGGCUGGCCUGGUGCUGCCUGGAAUUCUCGGGUGCCAA | 0.223 |
| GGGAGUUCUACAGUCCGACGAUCUGUCUACUCCUUAAUUGUCACAUUAGAAUUUGGUCGGCCAUUGUUUUGGUUAUGUUGCUGAUGUAAAUUUGUGUAAAUGGUUUCUACCCUGGAGAGUGUGUGUACCGUGUUGGAAUUCUCGGGUGCCAA | 8.77 |
| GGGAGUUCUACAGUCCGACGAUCCUACAGACCAAAAUCCACUUGUCAGCAGGAGCAGCAGCCCAGGCCCAGCACCAGCGGUCUUCCGGCUCCUCUGAGGGCUGCCACGUUGGGCGAGGGGAGCCAUGCCAAGGUGGAAUUCUCGGGUGCCAA | 0.292 |
| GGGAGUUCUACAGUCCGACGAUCAAGCUGACAUAGUGUGAUUUGCCAUGUAAUGUUUAUAGCUGCUGCUGUCUGCACAUUUGGGGGUCUCUAUAUUUCUGAAGAGGUAAGCUGAUGAAAAUAAAUAGAGUGUAUGGAAUUCUCGGGUGCCAA | 0.768 |
| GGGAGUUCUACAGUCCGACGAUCAGAGCCACGCUGCUCAGUCUGUUUCGUCAGCCGACUCAGGUUAUUUUCAGGGAAGGCAUGGAGGCAUAGUUUGGUUAGUUUCAUCACUAGGAUGUAUAAGGUGACGACACUGGAAUUCUCGGGUGCCAA | 2.94 |
| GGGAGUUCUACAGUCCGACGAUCGAAUAUUACUUUAACAUUCAGAUGGAUCAUAACUAAUUCGACUAGGGUGUUUUUCCUGAGUAGGAGUUAAGUUUGGAACUGGUGGUCUUGAAUGUUAAACAUGGAGUGUGUGGAAUUCUCGGGUGCCAA | 0.488 |
| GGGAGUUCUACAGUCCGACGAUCGGAUUCUGGGGGAAGGAGAGAAGGGCAGCUCAGGGUGGAUGUGAAGCCACCCUUCCUCUUCUGGACCCAGCCUGGUCUGCACUGCAACCUCCACCAGGACCAGGAUCCUGUGGAAUUCUCGGGUGCCAA | 0.757 |
| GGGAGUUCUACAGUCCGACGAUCCUUGUUGGCCUGCUGGGUAGAACCUUUGCUUCAGGCUUCAUGCUCACAGCUUCCUGUCCUUUGCCCUUGACUGUACUGAGUAUGUGGGUGGUUGACCCAUAUAGGCCAUGUGGAAUUCUCGGGUGCCAA | 0.437 |
| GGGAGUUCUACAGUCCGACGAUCCAAAUCCUUUAUUAUUAUUAUAAUUAUUUUUUUGCGUGAAAGUGUUACAUAUUCUUUCACUUGUAUGUACAGAGAGGUUUUCUGAAUAUUUAUUUUAAGGGUUAAAUCACUGGAAUUCUCGGGUGCCAA | 4.05 |
| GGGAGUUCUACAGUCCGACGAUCUUUGGAAUAUUUUAUCCUGUAUUCUUGUUUGAAUCCUUCCUCUAUUUAAGACAUAGCCAUGGAGCCCACAUGUUUAUGGAAUAGUCUACCCUUUGCCUGCAGGUCAGUUGUGGAAUUCUCGGGUGCCAA | 1.81 |
| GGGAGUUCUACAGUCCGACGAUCUCCGUAUUGUGAAGGAACCUCUUAAAUGGAACACUAAAAGACUUGAAACUGAGGGGCAAGAUAACCCCCACAUGACACGUGACAUCACUUUGGGGACAGCCCAGUUGCCAUGGAAUUCUCGGGUGCCAA | 0.653 |
| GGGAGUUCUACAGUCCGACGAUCCCUCUGCCUCUGGCUCAGGUUGCUCAAAGCACAGAUCCCCUCUUAUCCCUGUCCCCAGGACCGAAACACAUAGCCUCAUUUCAAAGCGUAGCCAGGUUCCCUCUGCUUUCUGGAAUUCUCGGGUGCCAA | 0.45 |

Sample 3
Target: Sal-like protein 4, full length isoform A (SALL4, Homo sapiens, UniProt Q9UJQ4, residues 1-1053)
UniProt Q9UJQ4, sequence (whole entry, looked up): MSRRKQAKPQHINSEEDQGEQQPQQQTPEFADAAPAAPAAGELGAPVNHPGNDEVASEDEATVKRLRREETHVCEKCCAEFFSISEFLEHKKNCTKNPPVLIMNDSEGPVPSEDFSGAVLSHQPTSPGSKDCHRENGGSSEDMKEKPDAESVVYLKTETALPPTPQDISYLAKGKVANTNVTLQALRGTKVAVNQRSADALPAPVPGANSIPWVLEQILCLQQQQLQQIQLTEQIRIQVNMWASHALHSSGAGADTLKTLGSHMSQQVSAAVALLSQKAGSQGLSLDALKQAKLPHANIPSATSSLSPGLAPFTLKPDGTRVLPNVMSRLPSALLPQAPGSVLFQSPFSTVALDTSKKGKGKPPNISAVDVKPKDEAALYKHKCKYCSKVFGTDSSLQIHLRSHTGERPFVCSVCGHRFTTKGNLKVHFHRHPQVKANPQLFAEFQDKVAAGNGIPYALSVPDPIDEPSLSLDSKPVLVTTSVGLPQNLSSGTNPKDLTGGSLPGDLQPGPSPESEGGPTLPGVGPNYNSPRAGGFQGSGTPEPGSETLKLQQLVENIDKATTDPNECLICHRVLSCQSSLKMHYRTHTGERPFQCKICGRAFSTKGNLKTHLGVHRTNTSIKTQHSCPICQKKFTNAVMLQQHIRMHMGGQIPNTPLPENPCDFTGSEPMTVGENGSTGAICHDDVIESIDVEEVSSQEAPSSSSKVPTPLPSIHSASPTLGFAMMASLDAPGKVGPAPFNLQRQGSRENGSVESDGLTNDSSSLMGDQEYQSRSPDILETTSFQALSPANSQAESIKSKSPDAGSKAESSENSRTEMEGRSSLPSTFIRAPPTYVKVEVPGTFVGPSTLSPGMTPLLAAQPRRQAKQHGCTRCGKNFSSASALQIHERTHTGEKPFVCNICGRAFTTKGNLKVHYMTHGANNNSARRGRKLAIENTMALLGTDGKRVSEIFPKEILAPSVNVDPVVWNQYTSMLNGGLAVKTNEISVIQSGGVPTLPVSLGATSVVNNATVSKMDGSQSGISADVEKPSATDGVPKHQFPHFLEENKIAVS
Technique: universal PBM
Form: double-stranded DNA, one strand shown
Matrix: in vitro
Concentration: 600 nM
Setting: 8-mer, flanks averaged, mean of replicates
Direction: higher = stronger binding
| Sequence | E-score |
| --- | --- |
| CCAGGGAA | -0.287 |
| ATGTGCCC | 0.0244 |
| CCCCATCA | -0.0943 |
| GATTGCGC | 0.0202 |
| AACCGGCA | -0.299 |
| CTCATGAC | -0.028 |
| GAGAACGC | -0.102 |
| ACAGTTAG | -0.078 |
| AGGAACTG | -0.0418 |
| ATTCACAG | 0.101 |
| AATGTTCG | 0.09 |
| CGCGTGAA | -0.113 |
| CTAATGTC | 0.00125 |
| GTTTGGTA | 0.201 |
| CCTACTAA | -0.0205 |
| GATCCTCA | -0.00172 |
| AGTGAGGC | -0.279 |
| CCTCGGCG | -0.337 |
| CCTCCCCG | -0.237 |
| ACAAAATA | 0.259 |
| CCCCGGCA | -0.264 |
| CTGCCGCA | -0.205 |
| CACTTGAG | -0.138 |

Sample 4
Target: TAR DNA-binding protein 43, full length, His tag (TARDBP, Homo sapiens, UniProt Q13148, residues 1-414)
Technique: RNA Bind-n-Seq
Form: RNA
Matrix: in vitro
Concentration: 20 nM
Setting: 6-mer, flanks averaged, single round
Together with: 150 mM KCl
Baseline: input library
Direction: higher = stronger binding
| Sequence | 6-mer enrichment (R) |
| --- | --- |
| ACCUGA | 0.639 |
| UUGCAG | 0.84 |
| UAGCGC | 0.812 |
| AGCUCU | 0.586 |
| UAUACU | 0.57 |
| UCGUAA | 0.587 |
| AUAAAC | 0.627 |
| GUUGAU | 0.773 |
| CCGGAA | 0.839 |
| UCCCGA | 0.643 |
| CUACUA | 0.575 |
| AGCUUU | 0.589 |
| GUAUGA | 1.22 |
| CCUUGA | 0.776 |
| GGGUUA | 1.66 |
| AAGAAG | 1.01 |
| AAUGGU | 0.888 |
| CCCUCA | 0.622 |
| AGUCUG | 0.79 |
| UCUCUA | 0.537 |
| ACACAG | 0.76 |

Sample 5
Target: Fragile X messenger ribonucleoprotein 1, C-terminal low-complexity region (Fmr1, Mus musculus, UniProt P35922)
Technique: RNA Bind-n-Seq
Form: RNA
Matrix: in vitro
Concentration: 200 nM
Setting: whole 134-nt RNA, ends assumed
Together with: 150 mM KCl
Baseline: input library
Direction: higher = stronger binding
| Sequence | log2 enrichment |
| --- | --- |
| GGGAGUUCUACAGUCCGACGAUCCACAGACAACACGCACCCACACAGACACAGAGGGAAGGGGUUGGGAAAGGGACAGGGUGCACAGCAGGGCGGGGUAGGACCCCAGCCCCUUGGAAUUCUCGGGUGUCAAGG | 1.01 |
| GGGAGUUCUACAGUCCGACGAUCCCUGUGCUACACAUCGUAUGUACCGAAUCGGCCCCCCCGGCCCCCCCGGGGCCCCCCCGGAAAGUAUUAUGUUACGCCGUUCGGAUCUGCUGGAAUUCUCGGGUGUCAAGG | -0.102 |
| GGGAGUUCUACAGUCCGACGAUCCAAGUCCUGUGCUACACAUCGUAUGUACCGAAUCGGGUUUGGGGUUUGGUUUGGGGAAAGUAUUAUGUUACGCCGUUCGGAUCUGCACUUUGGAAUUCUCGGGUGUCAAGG | 0.433 |
| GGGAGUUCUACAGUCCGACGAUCGUCCUGUGCUACACAUCGUAUGUACCGAAUCGGAAAAAAGGGAAAAAAGGAAAAAAGGAAAGUAUUAUGUUACGCCGUUCGGAUCUGCACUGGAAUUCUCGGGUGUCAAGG | -0.659 |
| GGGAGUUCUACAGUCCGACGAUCUGGGAGGUGGAUUUUGUUUAUUUUUUUAGCUCAUUUCCAGGGGUGGCAAUUUUUUUUUAAUAUGUGUCAUGAAUAAAGUUGUUUUUGAAAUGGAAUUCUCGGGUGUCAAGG | 0.375 |
| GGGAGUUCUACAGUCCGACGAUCCCUGUGCUACACAUCGUAUGUACCGAAUCGGGCCCCCCCGGGCCCCCCCGGCCCCCCCGGGAAAGUAUUAUGUUACGCCGUUCGGAUCUGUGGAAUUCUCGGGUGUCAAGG | -0.601 |
| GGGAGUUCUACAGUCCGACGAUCUCCUGUGCUACACAUCGUAUGUACCGAAUCGGGGAAAAAGGGGAGGGGUUUUUUUGGGGAAAGUAUUAUGUUACGCCGUUCGGAUCUGCAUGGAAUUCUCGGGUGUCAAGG | 0.525 |
| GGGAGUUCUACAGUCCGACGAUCUUACUUUAGAGGAGGAUCUGAUGGAUAUGGCAGUGGACGUGGAUUUGGGGAUGGCUAUAAUGGGUAUGGAGGAGGACCUGGAGGUGGCAAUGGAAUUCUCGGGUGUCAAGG | 0.349 |
| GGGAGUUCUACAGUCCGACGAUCACCAUGCAGGUGGGCAUCUUUGGGAAGUGGGGCAAGGGGGGGUUAGGGAGGGGGGUAACACUUUGGGAACAGGUGGUCCCAGGUCGUUUCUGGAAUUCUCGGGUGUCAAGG | 0.761 |
| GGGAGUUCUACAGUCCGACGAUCGCAGGAAGUAAAAACAAAUGGAAAUGCUUCGGAUAGUGGCAGGGGUGGGGGUUGCUAAGGAAAGGGUGGGAUGGGAAAAGGUAAAGAGUUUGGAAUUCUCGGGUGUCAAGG | 0.186 |

Excerpt of the above (sample 1):
| Sequence | E-score |
| --- | --- |
| CGTCTGTA | -0.0329 |
| GAAATGCA | -0.221 |
| AAGTACTG | -0.11 |
| CGCTACTA | 0.208 |
| CCTACTCA | -0.172 |
| AATTCCAA | -0.194 |
| CGAAGCGC | 0.335 |
| CCGTACAA | 0.24 |
| ACGGAGAT | 0.057 |
| CTCGAGAA | -0.0595 |
